Results of several laboratories.
Every numbered part comes from another study and shows a few of its results, in no order. Substitutions count along the parent as printed.

Series 1 — target: HLF, bZIP domain (human); technique: DHFR protein complementation; matrix: yeast; baseline: wild-type JUN-FOS pair; reading: higher = stronger binding
Notes: single substitutions, most at no-binding floor
Starting sequence: JUN, bZIP domain (human); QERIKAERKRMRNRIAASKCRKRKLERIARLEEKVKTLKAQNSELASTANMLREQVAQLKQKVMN; partner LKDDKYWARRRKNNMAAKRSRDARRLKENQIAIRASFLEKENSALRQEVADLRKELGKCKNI
Variant	binding fitness
K36L	-1.39 natural log
A49N	-1.46 natural log
R53K	-1.46 natural log
N42A	-1.49 natural log
L38F	-1.53 natural log
L52D	-1.47 natural log
E54I	-1.57 natural log
S43P	-1.49 natural log
Q41L	-1.33 natural log
E32D	-1.49 natural log
A40V	-1.5 natural log
E54S	-1.35 natural log
V56E	-1.5 natural log
S43W	-1.5 natural log
L59H	-1.49 natural log
Q55I	-1.21 natural log
K34D	-1.5 natural log
S43L	-1.35 natural log

Series 2 — technique: protein binding microarray; form: double-stranded DNA, one strand shown; matrix: in vitro; concentration: not given; baseline: not given; reading: higher = stronger binding
Target: Histone acetyltransferase KAT6A, both winged helices, GST fusion (KAT6A, Homo sapiens, UniProt Q92794, residues 1-181)
Notes: 8-mer, flanks averaged, mean of 2 arrays, mostly near background
Construct (chain): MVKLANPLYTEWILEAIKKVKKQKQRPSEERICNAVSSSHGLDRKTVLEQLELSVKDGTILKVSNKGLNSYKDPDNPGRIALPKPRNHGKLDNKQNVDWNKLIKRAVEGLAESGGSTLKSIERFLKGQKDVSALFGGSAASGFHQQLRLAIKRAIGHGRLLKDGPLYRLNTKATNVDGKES
Sequence	E-score
CCGCAGCG	0.241
CTCTTCAC	-0.239
TGTCTAAA	0.028
AAGTACCT	-0.159
ACGCGGTC	0.295
CGCGTCAA	0.258
CGGCGAGC	0.268
GGCCGAAA	0.158
GTCCCGTA	0.252
ACGCTACA	-0.0191
CCCGGGCA	0.199
AGAGAACC	-0.175
CCCCATTA	-0.194
AGATTGCC	-0.0872
CGGACTAG	0.128
AGACCTTG	-0.0764
AGCATCCC	-0.00806
AGCTACGC	0.168
ACAACTGG	-0.148
GGTTTCGA	0.195
CGTTGCAG	-0.00622

Series 3 — technique: RNA Bind-n-Seq; form: RNA; matrix: in vitro; concentration: 100 nM; baseline: input RNA pool; reading: higher = stronger binding
Target: RING finger protein unkempt homolog, zinc fingers 1-6, SBP tag (UNK, Homo sapiens, UniProt Q9C0B0, residues 30-357)
Chain of UniProt Q9C0B0 (30-357, looked up): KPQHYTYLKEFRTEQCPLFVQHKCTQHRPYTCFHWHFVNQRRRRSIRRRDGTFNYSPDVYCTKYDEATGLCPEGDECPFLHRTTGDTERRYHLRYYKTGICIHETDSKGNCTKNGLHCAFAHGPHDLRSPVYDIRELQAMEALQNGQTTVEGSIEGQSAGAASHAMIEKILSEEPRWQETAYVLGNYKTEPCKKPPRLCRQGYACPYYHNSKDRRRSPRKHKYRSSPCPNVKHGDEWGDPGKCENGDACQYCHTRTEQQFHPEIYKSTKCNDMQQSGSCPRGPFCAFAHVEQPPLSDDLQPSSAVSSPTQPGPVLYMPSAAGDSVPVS
Notes: RNA with constant flanks, vertebrate orthologous sites, ends assumed
All sequences stand within: GGGAGUUCUACAGUCCGACGAUC … CAACAGAGGAUUGAGCAUCA
Sequence	bound/input enrichment
CCGAAAGGCCAGAUCCCCUCCUCCCUUCUACUGCUUCUACCAACUGGAAGCACAGAAAACUAGAAUUUCAUUUAUUUUGUUUUUAAAAAUAUAUGUUGAUUUCUUGUAACAUCCAAUAGG	0.343 ratio
UUUGAGUUAGUUUUUCACAUUUUCUGUAAAUAACAGAUAAUCUUUUUAAAGUUUAUUUUUAAGUGCUGUUUUAACAAUGUGGAUAGACUAUAAAUGUACUUGCUGAAUUCAUUCAUUUUU	0.207 ratio
AAGUAGUUUUAAGCUUGUUUGCACAGUUCUUUUUUCCAUUGGAGAUGGAAUCCAUUGCCUUAGGUCUUUUUAAAUAGUGUAUUGUUAUUGUUGGGGCUGCCUCUAUGCUUGAAAACCAGU	2.39 ratio
AAUCAAUAGAACUACAUAAUACUAAAGUUGCAGUUGAAAGGAUAUCCAAGUAUGUGUUCGUAGUUACUAAAAGAAGUAUAGCUGUUAUUGCCUUGUAUUUAUAGCCCUUGUUUCAGGUCU	0.916 ratio
CACACUAUAUUGUGGCAUUUAGUCAACAUGGAAGUAGACCAGCUCUGCAGAUUUGAAAUUUAGAUUUUUUUAAAUUAUGUACUGGGGACAGGUUUUUGUCGCUUUACAUUGCUUCCUAGU	1.68 ratio
GUAAUGCAUUUUGUGACUUGGAUGUGGUCUGCGCGGGAAGCUGCUGGCCCCUCCACAACAUAUAAAAUUUUUGUCUUUUUUUAAGAAGUUAAAACUGAAUUUAAUUUACUAAAACUGUAA	0.281 ratio
AGAGCUCACAAACUGAAAGGAAAACUAUUAAAGAGUUUCUAAUAUUAACUAUUAGAAAGCUAGGAAGAUUAGGACAAUUUUACAAAUGAGCAAUUGAAAAGGAUCUGGGAACUAGACUGA	0.416 ratio
CACAUCUGGUGAUAUUUGGCCUGGCCUUUCAGCUUAUGACAAUAGUCCCAGAUCACCCCAUAGUCCUUCACCUAUUGCUACACCACCUAGUCAGAGUUCAUCUUGCUCUGAUGCCCCCAU	0.851 ratio
GCAUGCACAUGCCGCUGUCACCAAAAGCAACUACCGUCUUCAAAACCUCCAAUAGCCUUCUUAGGAUUCUCUCCCUCUUUCCCUUCUGUUCCCCCGAUGCUUUAAAUGAUUAGAAGUCCU	1.5 ratio

Series 4 — target: CCND2, cyclin fold, Cln2 fusion (human); technique: yeast growth competition, sequencing; matrix: yeast; notes: weak parent motif; baseline: not given; reading: higher = stronger binding
Starting sequence: REV3L docking peptide (human); PPVIIKYIIINRF
Variant	normalised enrichment score
Y7A	-0.067
K6A	0.0542
I8A	0.0617
V3A	-0.516
I5A	-0.314
I10A	-0.227

Series 5 — technique: DHFR PCA, deep sequencing; matrix: yeast; together with: (+)-ABA 0.39 µM; baseline: wild-type fitted maximum; reading: higher = stronger binding
Target: ABI1, truncated, D143A, DHFR fusion (Arabidopsis thaliana)
Notes: methotrexate growth selection, single substitutions
Starting sequence: PYL1, truncated, DHFR fusion (Arabidopsis thaliana); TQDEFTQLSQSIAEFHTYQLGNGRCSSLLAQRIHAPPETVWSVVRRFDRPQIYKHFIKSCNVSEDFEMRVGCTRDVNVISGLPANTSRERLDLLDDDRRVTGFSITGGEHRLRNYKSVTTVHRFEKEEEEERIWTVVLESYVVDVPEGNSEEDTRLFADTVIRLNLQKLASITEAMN
Variant	relative binding score
I57W	-7.94%
V145G	-10.5%
E89Y	-4.4%
G148Q	-3.94%
T101L	73.8%
V70R	-0.51%
S140F	-22.4%
A170V	-5.98%
A158C	83.1%
L82A	3.03%
P50F	-13.1%
T6V	51%

Series 6 — technique: RNA Bind-n-Seq; form: RNA; matrix: in vitro; concentration: 365 nM; baseline: no-protein control; reading: higher = stronger binding
Target: RNA binding protein fox-1 homolog 2, RRM domain, GST-SBP tag (RBFOX2, Homo sapiens, UniProt O43251-10, residues 100-194)
Notes: natural RNA segment, single round, ends assumed
All sequences stand within: GGGAGUUCUACAGUCCGACGAUC … UGGAAUUCUCGGGUGCCAA
Target sequence (chain): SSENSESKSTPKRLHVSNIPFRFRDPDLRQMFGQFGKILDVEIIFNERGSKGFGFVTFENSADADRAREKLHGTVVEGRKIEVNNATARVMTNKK
Sequence	RBNS enrichment (R)
CCUGGUGGAGCCAGGCAGCAGGGCCUUCCUGACCAACAGCCAUGUCUGACCUUCCCACUGAGAAACACAUGUUCAUUUAUGUGAUCAUGUAUAGAUUUCAGAAUAUAAGA	0.178
GCUUCCCCGAAAUGGUAUCACACAGGUCAUCCAUGAAUCGCUGUAGUGGCUAGGGGUAUGUGGGACUGCGGCACUGGACUGGGUGCUUCAUGGUGGGCCCUGUGCUCUGU	0.637
GGGCAAAAUGUUUGGUUUUUUCUCUUAAAAAAAAUAACACCCCAUUACCAAAAGAAAAGGUAAGGUGGCAACCUUAUUUUUAAUAGUUUGAAAUGAUGAUAAUCCUAAUU	0.543
GUGCCCAAGAUUAUCUGUAAAGUAAUAAAAUCUGCCGAGGAGAAUGUGAAAAGAAUUUGUUCAAGGCUUAACAUUUUUGAUACAGACUAAUAAAAUUUAAGAAACAAAGG	0.796
CUUGAAGAAGUGAAGGCCAACUGUGUGCUCGCCCAACAUUUGCAACCAGGAGGCUUCGAAAAGCAGCGUCUCUGGCAGUCAAGAUAAAAAAGUUGAUAUUGUGUUUUGUG	1.09
GCUCUAGCCUGUACAUCCCACAUCCUCCGUCCGUCUGUCCAUCCAGGGUUUGUCUGUCCUGAAAGUGACACCCACCAGCUCUGCGGGAGACUCUUGGUAGACAGACCUGU	0.422
UUUGAGCAUAAUUCACUUUAAAGUCAUUUUUCCAGCAAUGUUUAAAUUACUUUCUCAUUCUUUUAGUGUAUUCAACAUUGUCUGCCUCUUCCUGCAGUUGAUGUAAUUGC	0.673
AAAGAAAGUGGCUGGAGGUGUGUUUGGUGUGAGAGGUGAGCAAUAAAGUACCUGCACAUUCUCUCCUGCUCUGGGAGUUUUCUUUUAGCUAUUUUCAUACCAGAUUGUGC	0.562
UUAUCUUCUCAUAUUUGACAAAUUUGUGAUAGAAAUAAUAAUUCCCACAUCUACCGGUACUUGCCUAAACCCUGACUGUGCCAUCCCAAAGGCCUUGAUGUGAAUUUUCU	0.548
CUGUCAUUUAUUAUCCUAAAGAAGAAAACAUAAUAACCAUAAUGGGCUCUCAACUCAACUCCCUUUUUUAUUUAGUUCUAUUUGGAGGAGUUAUGUAUUUUUUACAUUAG	0.639
GAAAUUACAUGCUUGCCCAACACACUGUGAAAUAGUUACCAAAAUUUGUACAAAUGCAGCAUCUUCAUUCUUUCUGAGAAGACAAGAUGGUUUUCUUUACAUGAACAAAU	0.533
GGACUACACUGUUGACCUACCCAUGUGACAGUUGUUUUGUUAGAUGGAGAUGUUGCGUUACUAUGGAGCUUACAUGAAAUGGGUAGCAUAUAGUUAAAGGUCGUGACAAA	0.582

Mixed results
Substance	target	test	system	conditions	how to read	quantity	value
PhoQ, residues 284 288 289 292 302 303 DDMDFR	PhoP, residues 12 14 15 18 19 LHHVQ (Escherichia coli, UniProt P23836)	Sort-seq, measured: YFP reporter	E. coli	PhoQ-PhoP variant library, together with: 10 µM Mg2+	baseline: high Mg2+ state, higher = stronger signaling	fold induction	0.82

Repeated from above (series 1):
Variant	binding fitness
L38F	-1.53 natural log
L52D	-1.47 natural log
E54I	-1.57 natural log
S43P	-1.49 natural log
Q41L	-1.33 natural log
E32D	-1.49 natural log
A40V	-1.5 natural log
E54S	-1.35 natural log
V56E	-1.5 natural log
S43W	-1.5 natural log
L59H	-1.49 natural log
Q55I	-1.21 natural log
K34D	-1.5 natural log
